# Measurements pooled from the literature.
# Several values in a cell are separate wells, animals, samples, runs or records. ± marks the error that the study gave.
# Chain of UniProt Q8NEB9 (whole entry, looked up): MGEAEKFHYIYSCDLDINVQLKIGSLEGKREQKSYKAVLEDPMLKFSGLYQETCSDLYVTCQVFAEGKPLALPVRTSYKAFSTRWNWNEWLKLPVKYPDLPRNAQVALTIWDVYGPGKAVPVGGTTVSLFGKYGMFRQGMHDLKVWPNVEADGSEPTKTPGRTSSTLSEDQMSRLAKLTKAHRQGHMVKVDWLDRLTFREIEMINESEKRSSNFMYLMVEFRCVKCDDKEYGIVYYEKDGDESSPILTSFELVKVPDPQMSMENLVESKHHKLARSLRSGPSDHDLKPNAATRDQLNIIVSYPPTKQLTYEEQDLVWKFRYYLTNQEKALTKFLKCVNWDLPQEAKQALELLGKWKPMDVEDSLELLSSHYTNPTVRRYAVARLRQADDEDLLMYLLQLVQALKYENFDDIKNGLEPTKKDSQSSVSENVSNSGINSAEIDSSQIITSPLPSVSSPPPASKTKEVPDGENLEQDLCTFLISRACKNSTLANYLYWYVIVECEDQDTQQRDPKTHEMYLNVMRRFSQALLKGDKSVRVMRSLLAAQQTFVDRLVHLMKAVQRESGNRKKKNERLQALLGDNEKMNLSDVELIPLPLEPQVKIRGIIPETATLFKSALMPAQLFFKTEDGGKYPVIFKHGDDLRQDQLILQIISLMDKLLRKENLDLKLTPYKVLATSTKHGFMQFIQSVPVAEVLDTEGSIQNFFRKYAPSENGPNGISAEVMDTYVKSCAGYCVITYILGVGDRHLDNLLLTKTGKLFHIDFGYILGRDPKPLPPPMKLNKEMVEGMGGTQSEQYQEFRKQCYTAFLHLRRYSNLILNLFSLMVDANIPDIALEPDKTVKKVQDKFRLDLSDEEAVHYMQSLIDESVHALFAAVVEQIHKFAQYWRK
# Chain of UniProt Q15759 (whole entry, looked up): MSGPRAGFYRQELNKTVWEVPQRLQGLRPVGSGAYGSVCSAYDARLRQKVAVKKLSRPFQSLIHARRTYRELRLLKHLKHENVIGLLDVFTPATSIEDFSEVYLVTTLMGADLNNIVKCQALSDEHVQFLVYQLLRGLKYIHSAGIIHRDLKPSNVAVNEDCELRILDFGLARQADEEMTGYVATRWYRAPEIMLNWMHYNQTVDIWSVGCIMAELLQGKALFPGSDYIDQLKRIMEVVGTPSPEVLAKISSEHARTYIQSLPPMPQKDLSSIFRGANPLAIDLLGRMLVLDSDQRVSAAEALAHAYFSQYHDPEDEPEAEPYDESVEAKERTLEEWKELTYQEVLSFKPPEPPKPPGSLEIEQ
# Chain of UniProt P32239 (whole entry, looked up): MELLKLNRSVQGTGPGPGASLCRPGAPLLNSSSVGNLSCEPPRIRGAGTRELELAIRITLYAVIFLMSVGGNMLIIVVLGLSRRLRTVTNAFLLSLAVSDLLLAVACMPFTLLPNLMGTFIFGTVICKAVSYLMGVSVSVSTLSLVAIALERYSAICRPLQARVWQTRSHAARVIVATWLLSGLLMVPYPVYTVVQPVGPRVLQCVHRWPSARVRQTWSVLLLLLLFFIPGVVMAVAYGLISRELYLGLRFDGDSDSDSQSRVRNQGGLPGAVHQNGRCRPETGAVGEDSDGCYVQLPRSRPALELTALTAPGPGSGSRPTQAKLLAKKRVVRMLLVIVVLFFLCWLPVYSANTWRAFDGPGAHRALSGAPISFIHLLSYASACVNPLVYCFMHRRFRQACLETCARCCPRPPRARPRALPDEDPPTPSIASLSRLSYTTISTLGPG
SMILES,tested on,test,test system,conditions,how to read,quantity,result
O=C(Nc1ccccc1F)c1cc2c(=O)n3ccccc3nc2n1Cc1ccccc1,Vero,MTT,,"0.4 µM, 24 (unit not given)",,viability,78.4%
CO[C@H]1C[C@@H]2CC[C@@H](C)[C@@](O)(O2)C(=O)C(=O)N2CCCC[C@H]2C(=O)O[C@H]([C@H](C)C[C@@H]2CC[C@@H](OC(=O)NCCOCCOCCOCCOCCOCCOCCOCCOCCC(=O)N3CCc4cc(Cn5nc(-c6ccc7oc(N)nc7c6)c6c(N)ncnc65)ccc4C3)[C@H](OC)C2)C[C@@H](O)[C@H](C)/C=C(\C)[C@@H](O)[C@@H](OC)C(=O)[C@H](C)C[C@H](C)/C=C/C=C/C=C/1C,,phase 1 dose escalation,advanced solid tumour patients,"intravenous, 16 mg weekly, grade ≥3",,any TRAE incidence,75%
CCc1ccc(NC(=O)c2cc3c(=O)n4ccccc4nc3n2C)cc1,Vero,MTT,,"100 µM, 24 (unit not given)",,viability,52.7%
Cn1cc2cc(C(F)(F)c3nnc4ccc(-c5cnn(C6CC6)c5)nn34)c(F)cc2n1,MKN-45,CCK-8,,"0.1 µM, 72 h",relative to: untreated,viability,6.25% and 6.22% and 5.62%
Cc1nn(-c2ccc(Cl)cc2)c2c1C(c1ccc(-c3ccccc3)cc1)C(C#N)=C(N)O2 (stereo not shown),Vero,MTT,,100 µM,,viability,49.1%
CC(C)C[C@H](NC(=O)[C@H](C)NC(=O)[C@@H](NC(=O)[C@H](CCCNC(=N)N)NC(=O)[C@H](CC(C)C)NC(=O)[C@H](Cc1c[nH]c2ccccc12)NC(=O)[C@@H]1CCCN1C(=O)[C@@H](N)CCCCN)C(C)C)C(=O)N[C@@H](CS)C(=O)N1CCC[C@H]1C(=O)NCC(=O)O,H9c2,WST-1,,"4 µM, 24 h",,viability,86% and 86.9% and 108%
O=S(=O)(Nc1ccc(-c2n[nH]c(=S)o2)cc1)c1ccc(C(F)(F)F)cc1,MCF7 non-transfected,MTT,,"100 µM, 24 h",relative to: untreated,viability,83.3 ± 1.12%
CC[C@H](C)[C@H](NC(=O)[C@H](Cc1ccccc1)NC(=O)[C@H](CCC(=O)O)NC(=O)[C@H](CCCNC(=N)N)NC(=O)[C@H](C)NC(=O)[C@H](C)NC(=O)[C@H](CCC(N)=O)NC(=O)[C@H](CCC(=O)O)NC(=O)[C@H](CCC(=O)O)NC(=O)[C@H](CC(C)C)NC(=O)[C@H](Cc1ccc(O)cc1)NC(=O)[C@H](CO)NC(=O)[C@H](CO)NC(=O)[C@@H](NC(=O)[C@H](CC(=O)O)NC(=O)[C@H](CO)NC(=O)[C@@H](NC(=O)[C@H](Cc1ccccc1)NC(=O)[C@@H](NC(=O)CNC(=O)[C@H](CCC(=O)O)NC(=O)[C@H](C)NC(=O)CCc1c[nH]cn1)[C@@H](C)O)[C@@H](C)O)C(C)C)C(=O)N[C@@H](C)C(=O)N[C@@H](Cc1c[nH]c2ccccc12)C(=O)N[C@@H](CC(C)C)C(=O)N[C@H](C(=O)N[C@@H](CCCNC(=N)N)C(=O)NCC(=O)N[C@@H](CCCNC(=N)N)C(=O)N[C@@H](CCCCNC(=O)COCCOCCNC(=O)COCCOCCNC(=O)CC[C@H](NC(=O)CCCCCCCCCCCCCCCCC(=O)O)C(=O)O)C(=O)NCC(=O)NCC(=O)N[C@@H](CO)C(=O)N[C@@H](CCCCNc1c(NCCCCCN(O)C(=O)CCC(=O)NCCCCCN(O)C(=O)CCC(=O)NCCCCCN(O)C(C)=O)c(=O)c1=O)C(=O)O)C(C)C [zirconium-89 labelled],,,"rat, duodenum","iv, 3 nmol/kg, 72 h, ex vivo",,tissue uptake,0.17 %ID/g
CC(=O)N1CCC(C(=O)N2CCN3C(=O)c4cc(-c5ccccc5)ccc4NC(=O)C3C2)CC1 (stereo not shown),Salmonella typhimurium,,TA98,500 µg/plate,,revertants per plate,36.5
NC(=O)CNC(=O)[C@H](Cc1ccc(F)cc1)NC(=O)[C@@H](Cc1ccccc1)NC(=O)OCc1ccccc1,Vero/SLAM cells,CCK-8,,"100 µM, 24 h, 1% DMSO",,viability,101.1 ± 0.5%
CC(=N)S,THLE-2,MTT,,"400 µM, 72 h, 2D monolayer culture",,viability,64.4%
CC(=O)c1cccc(NC(=O)c2cc3c(=O)n4ccccc4nc3n2C)c1,Vero,MTT,,"1.6 µM, 24 (unit not given)",,viability,81.1%
O=C(Nc1cccc(SSc2cccc(NC(=O)c3ccccc3)c2)c1)c1ccccc1,Jurkat E6-1,WST-8,,"10 µM, 24 h",relative to: control,viability,74.9%
O=S(=O)(c1ccc(O)cc1)c1ccc(O)cc1,HepG2 spheroids,annexin V/PI flow cytometry,,"40 µM, 24 h",,viability,57.6 ± 10.8%
C[C@H]1CN(c2n[nH]c3nc(N[C@H]4CC[C@H](NS(=O)(=O)CCC(F)(F)F)CC4)ncc23)CCO1,"MAPK11 (Homo sapiens, UniProt Q15759)",Kinobeads competition,"HEK293, K562, placenta lysate","20 µM, unit not given",relative to: vehicle,remaining binding,0.13
COc1ccc(N2C(=O)N(c3c(C)cccc3Cl)Cc3cnc(Nc4ccc(C5CCN(C)CC5)cc4OC)nc32)nc1,"PIK3C3 (Homo sapiens, UniProt Q8NEB9)","kinase activity, inhibitor",,"0.5 µM, VPS34",,inhibition,16%
Cc1cccn2c(=O)c3cc(C(=O)Nc4ccc(N(C)C)cc4)n(C)c3nc12,Vero,MTT,,"1.6 µM, 24 (unit not given)",,viability,84.3%
COc1cc(Nc2ncc(F)c(Nc3ccc4c(n3)NC(=O)C(C)(C)O4)n2)cc(OC)c1OC,"CCKBR (Homo sapiens, UniProt P32239)",,,,,IC50,> 10 µM
Cn1c(C(=O)Nc2ccc(Cl)cc2)cc2c(=O)n3ccccc3nc21,Vero,MTT,,"25 µM, 24 (unit not given)",,viability,65.6%
Cc1nn(-c2ccc(Cl)cc2)c2c1C(c1ccc(F)cc1F)C(C#N)=C(N)O2 (stereo not shown),Vero,MTT,,100 µM,,viability,44.6%
COc1cc2c(Oc3ccc4[nH]c(C)cc4c3F)ccnc2cc1OCC1(N)CC1,,,paediatric recurrent refractory sarcoma,8 mg,,grade 3 Hyperthyroidism,0%
O=C(Nc1cccc(OS(=O)(=O)c2ccc(Cl)cc2)c1)c1ccc2ncccc2c1,MCF7 non-transfected,MTT,,"100 µM, 24 h",relative to: untreated,viability,85.5 ± 1.13%

# Excerpt of the above:
SMILES,tested on,test,test system,conditions,how to read,quantity,result
CO[C@H]1C[C@@H]2CC[C@@H](C)[C@@](O)(O2)C(=O)C(=O)N2CCCC[C@H]2C(=O)O[C@H]([C@H](C)C[C@@H]2CC[C@@H](OC(=O)NCCOCCOCCOCCOCCOCCOCCOCCOCCC(=O)N3CCc4cc(Cn5nc(-c6ccc7oc(N)nc7c6)c6c(N)ncnc65)ccc4C3)[C@H](OC)C2)C[C@@H](O)[C@H](C)/C=C(\C)[C@@H](O)[C@@H](OC)C(=O)[C@H](C)C[C@H](C)/C=C/C=C/C=C/1C,,phase 1 dose escalation,advanced solid tumour patients,"intravenous, 16 mg weekly, grade ≥3",,any TRAE incidence,75%
CCc1ccc(NC(=O)c2cc3c(=O)n4ccccc4nc3n2C)cc1,Vero,MTT,,"100 µM, 24 (unit not given)",,viability,52.7%
Cn1cc2cc(C(F)(F)c3nnc4ccc(-c5cnn(C6CC6)c5)nn34)c(F)cc2n1,MKN-45,CCK-8,,"0.1 µM, 72 h",relative to: untreated,viability,6.25% and 6.22% and 5.62%
Cc1nn(-c2ccc(Cl)cc2)c2c1C(c1ccc(-c3ccccc3)cc1)C(C#N)=C(N)O2 (stereo not shown),Vero,MTT,,100 µM,,viability,49.1%
